# Assay results pooled from the literature.
# Lines come from different studies, so protocols differ. Values joined by “and” are separate records of one study, mostly repeats; a detail may differ. ± gives the spread as reported.
Structure (SMILES),cell line,assay,setting,EC50
C=CC(=O)Nc1cc(-c2nn(C3CCC(N4CCN(C(C)=O)CC4)CC3)c3ncnc(N)c23)ccc1Oc1ccccc1 (stereo not drawn),HCC827 GR6,cell proliferation,3 days,≥ 10 µM
CC[C@@](C)(NC(C)=O)C(=O)N[C@@H](CC(N)=O)C(=O)N[C@@H](CC(C)C)C(=O)NC(C)(C)C(=O)N1CCC[C@H]1C(=O)N[C@@H](CO)C(=O)N[C@H](C(=O)NC(C)(C)C(=O)N1CCC[C@H]1C(=O)NC(C)(C)C(=O)N[C@@H](CC(C)C)C(=O)NC(C)(C)C(=O)N1CCC[C@H]1C(=O)N[C@H](CO)CC(C)C)C(C)C,HepG2,"cytotoxicity, MTS",48 h,> 25 µM
F[P-](F)(F)(F)(F)F.F[P-](F)(F)(F)(F)F.[Ru+2].c1ccc(-c2ccccn2)nc1.c1ccc(-c2ccccn2)nc1.c1csc(-c2cc3cccnc3c3ncccc23)c1,HL-60,"cell viability, resazurin","16 h drug-to-light interval, with: visible light 100 J/cm2",6.82 µM and 6.8 µM
O=C(c1cccc(I)c1)N1CCN(C(=O)c2cc(Cc3n[nH]c(=O)c4ccccc34)ccc2F)CC1 [iodine-123 labelled],HCT-116 p53+/+,"cell viability, Alamar Blue",4 days,0.011 µM
C[C@@H]1NC(=O)[C@@H](Cc2ccccc2)NC(=O)[C@@H]2CCCCNC(=O)c3cc(cc(c3)C(=O)N[C@H](Cc3ccc4ccccc4c3)C(=O)N[C@@H](CO)C(=O)N[C@@H](CC(N)=O)C(=O)N[C@H](Cc3ccc4ccccc4c3)C(=O)N[C@@H](c3ccccc3)C(=O)N2)C(=O)NC[C@@H](C(=O)N[C@@H](CCCN)C(=O)N[C@H](CCCNC(=N)N)C(=O)N[C@@H](Cc2ccc(O)cc2)C(=O)N[C@H](C)C(N)=O)NC(=O)[C@H](CCCNC(=N)N)NC(=O)[C@@H](CCCNC(=N)N)NC1=O,H358,"cell viability, CellTiter-Glo","96 h, 10% FBS",19 ± 10 µM
N#Cc1cccc(-c2ccccc2C(N)=O)c1,BSR-T7,T7 polymerase luciferase reporter,,> 100 µM
CC(C)C[C@@H](/C=C/[C@H](Cc1ccccc1)C(=O)N1CCC[C@H]1C(=O)N[C@H](C(=O)N[C@@H](CCCNC(=O)OCc1ccccc1)C(=O)NC1CC(C)(C)N([O])C(C)(C)C1)C(C)C)NC(=O)OC(C)(C)C,HT-1080,"protection from ferroptosis, PrestoBlue","24 h, with: erastin 10 µM",0.114 µM
N[C@@H]1C[C@H]1c1ccccc1 (racemic),NCI-H510A,"cell growth or viability, resazurin",10 days,> 2 µM
CC[C@H](C)[C@H](NC(=O)CNC(=O)[C@H](CC(=O)O)NC(=O)[C@H](CC(C)C)NC(=O)[C@@H](NC(=O)[C@H](CC(N)=O)NC(=O)[C@H](CCC(N)=O)NC(=O)CNC(=O)[C@H](CC(C)C)NC(=O)[C@H](CCCCN)NC(=O)[C@H](CCC(=O)O)NC(=O)[C@@H](NC(=O)[C@H](CCCCN)NC(=O)[C@H](CCC(=O)O)NC(=O)[C@H](Cc1ccccc1)NC(=O)[C@H](CC(C)C)NC(=O)[C@H](CCCCN)NC(=O)[C@H](Cc1c[nH]c2ccccc12)NC(=O)[C@@H](N)CCC(=O)O)[C@@H](C)CC)[C@@H](C)CC)C(=O)N[C@H](C(=O)N[C@@H](CCCCN)C(=O)N[C@@H](CC(C)C)C(=O)NCC(=O)N1CCC[C@H]1C(=O)N[C@@H](CC(C)C)C(=O)N[C@@H](CC(C)C)C(=O)N[C@@H](C)C(=O)N[C@@H](CC(C)C)C(=O)N[C@@H](CC(C)C)C(=O)NCC(=O)N[C@@H](CCC(N)=O)C(=O)N[C@@H](CC(C)C)C(=O)N[C@H](C(=O)N[C@@H](CCC(N)=O)C(=O)N[C@H](C(=O)N[C@@H](C)C(=O)N[C@@H](CC(C)C)C(N)=O)[C@@H](C)CC)[C@@H](C)O)[C@@H](C)CC,sheep erythrocytes,turbidity,pH 7.5,≥ 50 µM
CC(C)C[C@@H](NC(=O)[C@@H](CCCCN)NC(=O)CCN1C(=O)CC(SC[C@H](NC(=O)[C@H](CCCCNC(=O)CCN2C(=O)CC(SC[C@H](NC(=O)[C@H](CCCCN)NC(=O)[C@H](CCCCN)NC(=O)[C@H](CCCCN)NC(=O)[C@H](CO)NC(=O)CNC(=O)CNC(=O)CNC(=O)[C@H](Cc3ccc(O)cc3)NC(=O)[C@H](Cc3c[nH]c4ccccc34)NC(=O)[C@H](Cc3c[nH]c4ccccc34)NC(=O)[C@H](CCCCN)NC(=O)[C@@H](NC(=O)CNC(=O)[C@H](Cc3c[nH]c4ccccc34)NC(=O)[C@@H]3CCCN3C(=O)[C@H](CC(=O)O)NC(=O)[C@H](CCC(N)=O)NC(=O)[C@H](CCC(=O)O)NC(=O)[C@@H](N)Cc3ccc(O)cc3)C(C)C)C(N)=O)C2=O)NC(=O)CCN2C(=O)CC(SC[C@H](NC(=O)[C@H](CCCCN)NC(=O)[C@H](CCCCN)NC(=O)[C@H](CCCCN)NC(=O)[C@H](CO)NC(=O)CNC(=O)CNC(=O)CNC(=O)[C@H](Cc3ccc(O)cc3)NC(=O)[C@H](Cc3c[nH]c4ccccc34)NC(=O)[C@H](Cc3c[nH]c4ccccc34)NC(=O)[C@H](CCCCN)NC(=O)[C@@H](NC(=O)CNC(=O)[C@H](Cc3c[nH]c4ccccc34)NC(=O)[C@@H]3CCCN3C(=O)[C@H](CC(=O)O)NC(=O)[C@H](CCC(N)=O)NC(=O)[C@H](CCC(=O)O)NC(=O)[C@@H](N)Cc3ccc(O)cc3)C(C)C)C(N)=O)C2=O)C(=O)O)C1=O)C(=O)N[C@H](C)C(=O)N[C@H](CCCCN)C(=O)N[C@H](CC(C)C)C(=O)N[C@H](C)C(=O)N[C@H](CCCCN)C(=O)N[C@H](CCCCN)C(=O)N[C@H](CC(C)C)C(=O)N[C@H](C)C(=O)N[C@H](CCCCN)C(=O)N[C@H](CC(C)C)C(=O)N[C@H](C)C(=O)N[C@H](CCCCN)C(N)=O (stereo partly drawn),M2 macrophages,"cell viability, propidium iodide staining",2 h,1.08 µM
CC[C@H](C)[C@H](NC(=O)[C@H](CCCNC(=N)N)NC(=O)[C@H](CCCNC(=N)N)NC(=O)[C@H](CC(C)C)NC(=O)[C@H](CCC(=O)O)NC(=O)[C@H](CCC(N)=O)NC(=O)[C@H](C)NC(=O)[C@@H](NC(=O)[C@H](CNC(=O)CCl)NC(=O)[C@H](CCCNC(=N)N)NC(=O)[C@H](CCCNC(=N)N)NC(=O)[C@@H]1CCCN1C(=O)[C@H](CCCNC(=N)N)NC(=O)[C@H](CCCNC(=N)N)NC(=O)[C@@H]1CCCN1C(=O)[C@H](CCCNC(=N)N)NC(=O)[C@H](CCCNC(=N)N)NC(=O)[C@@H]1CCCN1C(=O)[C@H](CCCNC(=N)N)NC(=O)[C@H](CCCNC(=N)N)NC(=O)[C@@H]1CCCN1C(=O)[C@H](CCCNC(=N)N)NC(=O)[C@H](CCCNC(=N)N)NC(=O)[C@@H]1CCCN1C(C)=O)[C@@H](C)CC)C(=O)NCC(=O)N[C@@H](CC(=O)O)C(=O)N[C@@H](CCC(=O)O)C(=O)N[C@@H](Cc1ccccc1)C(=O)N[C@@H](CC(N)=O)C(=O)N[C@@H](C)C(=O)N[C@@H](Cc1ccc(O)cc1)C(=O)N[C@@H](Cc1ccc(O)cc1)C(=O)N[C@@H](C)C(=O)N[C@@H](CCCNC(=N)N)C(=O)N[C@@H](CCCNC(=N)N)C(N)=O,Raji,"apoptosis, flow cytometry",,< 5 µM
C[C@@H]1NC(=O)[C@@H](Cc2ccccc2)NC(=O)[C@@H]2CCCCNC(=O)c3cc(cc(c3)C(=O)N[C@H](Cc3ccc4ccccc4c3)C(=O)N[C@@H](CO)C(=O)N[C@@H](CC(N)=O)C(=O)N[C@H](Cc3ccc4ccccc4c3)C(=O)N[C@@H](c3ccccc3)C(=O)N2)C(=O)NC[C@@H](C(=O)N[C@@H](CCCN)C(=O)N[C@H](CCCNC(=N)N)C(=O)N[C@@H](Cc2ccc(F)cc2)C(N)=O)NC(=O)[C@H](CCCNC(=N)N)NC(=O)[C@@H](CCCNC(=N)N)NC1=O,H358,"cell viability, CellTiter-Glo","96 h, 10% FBS",15 ± 2 µM

# Excerpt of the above:
Structure (SMILES),cell line,assay,setting,EC50
C[C@@H]1NC(=O)[C@@H](Cc2ccccc2)NC(=O)[C@@H]2CCCCNC(=O)c3cc(cc(c3)C(=O)N[C@H](Cc3ccc4ccccc4c3)C(=O)N[C@@H](CO)C(=O)N[C@@H](CC(N)=O)C(=O)N[C@H](Cc3ccc4ccccc4c3)C(=O)N[C@@H](c3ccccc3)C(=O)N2)C(=O)NC[C@@H](C(=O)N[C@@H](CCCN)C(=O)N[C@H](CCCNC(=N)N)C(=O)N[C@@H](Cc2ccc(O)cc2)C(=O)N[C@H](C)C(N)=O)NC(=O)[C@H](CCCNC(=N)N)NC(=O)[C@@H](CCCNC(=N)N)NC1=O,H358,"cell viability, CellTiter-Glo","96 h, 10% FBS",19 ± 10 µM
